Literature values that unrelated publications cite.
Lines come from different studies, so protocols differ. Values joined by “and” are separate records of one study, mostly repeats; a detail may differ. ± marks the error that the study gave.
KDR: Vascular endothelial growth factor receptor 2 (KDR, Homo sapiens, UniProt P35968)
Sequence of UniProt P35968 (whole entry, looked up): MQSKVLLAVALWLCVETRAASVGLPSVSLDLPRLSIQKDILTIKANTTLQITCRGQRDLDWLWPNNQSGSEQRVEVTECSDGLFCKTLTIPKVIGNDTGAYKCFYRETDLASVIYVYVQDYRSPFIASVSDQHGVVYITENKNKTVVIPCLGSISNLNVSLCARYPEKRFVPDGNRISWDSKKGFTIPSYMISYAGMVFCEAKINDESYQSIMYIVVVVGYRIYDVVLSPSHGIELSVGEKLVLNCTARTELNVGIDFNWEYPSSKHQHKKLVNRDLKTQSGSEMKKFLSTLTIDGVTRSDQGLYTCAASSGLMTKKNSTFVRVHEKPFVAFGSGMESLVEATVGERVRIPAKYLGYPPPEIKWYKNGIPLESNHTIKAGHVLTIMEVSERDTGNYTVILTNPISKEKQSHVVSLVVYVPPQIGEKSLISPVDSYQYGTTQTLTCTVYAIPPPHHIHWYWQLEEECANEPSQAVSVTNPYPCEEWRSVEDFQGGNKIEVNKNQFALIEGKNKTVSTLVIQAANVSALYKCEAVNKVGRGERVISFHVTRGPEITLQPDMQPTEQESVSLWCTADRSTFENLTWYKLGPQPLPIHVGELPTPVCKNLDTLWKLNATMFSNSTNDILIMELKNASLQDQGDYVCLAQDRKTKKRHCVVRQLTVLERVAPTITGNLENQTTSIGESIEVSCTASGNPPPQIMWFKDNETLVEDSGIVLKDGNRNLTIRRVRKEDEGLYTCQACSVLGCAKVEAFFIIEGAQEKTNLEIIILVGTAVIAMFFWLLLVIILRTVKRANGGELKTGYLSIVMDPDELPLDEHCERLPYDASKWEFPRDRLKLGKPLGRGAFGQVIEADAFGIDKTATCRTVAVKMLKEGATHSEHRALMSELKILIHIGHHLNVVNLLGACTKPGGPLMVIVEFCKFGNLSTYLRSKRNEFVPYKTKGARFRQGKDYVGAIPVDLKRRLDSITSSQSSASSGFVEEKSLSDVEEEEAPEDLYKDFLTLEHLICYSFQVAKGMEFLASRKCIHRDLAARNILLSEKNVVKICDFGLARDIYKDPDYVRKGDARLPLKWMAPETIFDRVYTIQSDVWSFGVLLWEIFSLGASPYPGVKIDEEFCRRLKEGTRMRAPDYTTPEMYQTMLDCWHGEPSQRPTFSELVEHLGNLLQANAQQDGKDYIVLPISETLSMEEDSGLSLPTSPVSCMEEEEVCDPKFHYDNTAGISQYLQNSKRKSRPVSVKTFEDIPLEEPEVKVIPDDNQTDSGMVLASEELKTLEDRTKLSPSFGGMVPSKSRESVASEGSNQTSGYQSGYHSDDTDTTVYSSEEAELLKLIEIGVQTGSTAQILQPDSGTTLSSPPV
Si: Sucrase-isomaltase, intestinal (Si, Rattus norvegicus, UniProt P23739)
Sequence of UniProt P23739 (whole entry, looked up): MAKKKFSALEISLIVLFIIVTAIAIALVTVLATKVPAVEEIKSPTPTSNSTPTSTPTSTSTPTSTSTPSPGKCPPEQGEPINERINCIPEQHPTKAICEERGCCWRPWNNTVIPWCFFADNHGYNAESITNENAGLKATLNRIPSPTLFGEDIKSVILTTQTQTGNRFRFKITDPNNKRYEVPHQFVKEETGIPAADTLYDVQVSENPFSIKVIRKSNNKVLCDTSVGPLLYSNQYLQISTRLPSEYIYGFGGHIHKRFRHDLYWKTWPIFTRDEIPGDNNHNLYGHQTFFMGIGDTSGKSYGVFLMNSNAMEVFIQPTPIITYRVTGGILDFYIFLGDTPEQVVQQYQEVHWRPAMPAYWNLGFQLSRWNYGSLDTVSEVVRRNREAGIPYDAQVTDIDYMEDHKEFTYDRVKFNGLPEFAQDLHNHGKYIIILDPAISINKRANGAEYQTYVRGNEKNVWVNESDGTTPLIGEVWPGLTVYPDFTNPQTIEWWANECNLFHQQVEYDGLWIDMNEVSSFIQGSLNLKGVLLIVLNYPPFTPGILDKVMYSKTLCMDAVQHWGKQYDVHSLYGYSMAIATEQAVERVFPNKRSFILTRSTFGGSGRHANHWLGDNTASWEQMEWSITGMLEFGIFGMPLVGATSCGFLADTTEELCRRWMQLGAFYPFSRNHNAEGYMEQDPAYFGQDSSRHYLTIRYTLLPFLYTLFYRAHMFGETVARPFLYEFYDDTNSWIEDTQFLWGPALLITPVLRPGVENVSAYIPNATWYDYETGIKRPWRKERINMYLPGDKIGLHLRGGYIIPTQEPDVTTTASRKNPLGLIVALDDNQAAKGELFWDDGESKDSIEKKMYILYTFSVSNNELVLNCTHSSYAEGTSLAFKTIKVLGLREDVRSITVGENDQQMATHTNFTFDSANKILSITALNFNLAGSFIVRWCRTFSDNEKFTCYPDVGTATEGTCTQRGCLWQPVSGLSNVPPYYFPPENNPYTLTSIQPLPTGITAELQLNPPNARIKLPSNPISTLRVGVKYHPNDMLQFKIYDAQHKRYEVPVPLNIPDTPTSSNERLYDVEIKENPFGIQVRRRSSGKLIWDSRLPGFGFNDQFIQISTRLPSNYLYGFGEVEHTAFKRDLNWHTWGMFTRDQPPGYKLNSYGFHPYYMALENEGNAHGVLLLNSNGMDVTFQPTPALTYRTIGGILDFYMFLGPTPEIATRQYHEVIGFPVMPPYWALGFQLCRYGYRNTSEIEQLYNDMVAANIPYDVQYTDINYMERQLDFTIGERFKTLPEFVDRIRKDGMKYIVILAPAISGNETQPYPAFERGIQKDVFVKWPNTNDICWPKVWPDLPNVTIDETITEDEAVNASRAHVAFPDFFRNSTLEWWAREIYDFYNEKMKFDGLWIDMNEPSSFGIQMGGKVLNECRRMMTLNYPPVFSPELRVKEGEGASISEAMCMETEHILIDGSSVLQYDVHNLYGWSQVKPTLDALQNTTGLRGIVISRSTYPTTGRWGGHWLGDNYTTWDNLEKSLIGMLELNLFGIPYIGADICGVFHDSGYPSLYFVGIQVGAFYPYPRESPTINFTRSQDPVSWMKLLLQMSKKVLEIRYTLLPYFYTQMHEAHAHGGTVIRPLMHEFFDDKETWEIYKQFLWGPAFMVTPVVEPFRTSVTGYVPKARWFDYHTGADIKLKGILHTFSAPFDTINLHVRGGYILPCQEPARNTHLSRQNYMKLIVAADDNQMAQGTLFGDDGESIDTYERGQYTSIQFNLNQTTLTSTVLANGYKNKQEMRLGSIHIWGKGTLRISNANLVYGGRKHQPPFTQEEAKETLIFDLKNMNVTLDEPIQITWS
SIRT3: NAD-dependent protein deacetylase sirtuin-3, mitochondrial (SIRT3, Homo sapiens, UniProt Q9NTG7)
Sequence of UniProt Q9NTG7 (whole entry, looked up): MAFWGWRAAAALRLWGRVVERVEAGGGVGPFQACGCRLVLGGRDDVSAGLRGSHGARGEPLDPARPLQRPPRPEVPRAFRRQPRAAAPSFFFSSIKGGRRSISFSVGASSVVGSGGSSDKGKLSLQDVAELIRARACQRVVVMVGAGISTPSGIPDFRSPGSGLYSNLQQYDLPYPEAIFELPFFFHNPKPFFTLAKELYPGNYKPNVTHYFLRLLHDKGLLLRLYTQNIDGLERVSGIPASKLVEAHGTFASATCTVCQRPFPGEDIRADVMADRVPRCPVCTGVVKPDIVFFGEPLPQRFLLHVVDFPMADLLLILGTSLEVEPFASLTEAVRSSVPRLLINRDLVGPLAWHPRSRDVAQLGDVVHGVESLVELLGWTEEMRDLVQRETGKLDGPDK
Sequence of UniProt Q61143 (whole entry, looked up): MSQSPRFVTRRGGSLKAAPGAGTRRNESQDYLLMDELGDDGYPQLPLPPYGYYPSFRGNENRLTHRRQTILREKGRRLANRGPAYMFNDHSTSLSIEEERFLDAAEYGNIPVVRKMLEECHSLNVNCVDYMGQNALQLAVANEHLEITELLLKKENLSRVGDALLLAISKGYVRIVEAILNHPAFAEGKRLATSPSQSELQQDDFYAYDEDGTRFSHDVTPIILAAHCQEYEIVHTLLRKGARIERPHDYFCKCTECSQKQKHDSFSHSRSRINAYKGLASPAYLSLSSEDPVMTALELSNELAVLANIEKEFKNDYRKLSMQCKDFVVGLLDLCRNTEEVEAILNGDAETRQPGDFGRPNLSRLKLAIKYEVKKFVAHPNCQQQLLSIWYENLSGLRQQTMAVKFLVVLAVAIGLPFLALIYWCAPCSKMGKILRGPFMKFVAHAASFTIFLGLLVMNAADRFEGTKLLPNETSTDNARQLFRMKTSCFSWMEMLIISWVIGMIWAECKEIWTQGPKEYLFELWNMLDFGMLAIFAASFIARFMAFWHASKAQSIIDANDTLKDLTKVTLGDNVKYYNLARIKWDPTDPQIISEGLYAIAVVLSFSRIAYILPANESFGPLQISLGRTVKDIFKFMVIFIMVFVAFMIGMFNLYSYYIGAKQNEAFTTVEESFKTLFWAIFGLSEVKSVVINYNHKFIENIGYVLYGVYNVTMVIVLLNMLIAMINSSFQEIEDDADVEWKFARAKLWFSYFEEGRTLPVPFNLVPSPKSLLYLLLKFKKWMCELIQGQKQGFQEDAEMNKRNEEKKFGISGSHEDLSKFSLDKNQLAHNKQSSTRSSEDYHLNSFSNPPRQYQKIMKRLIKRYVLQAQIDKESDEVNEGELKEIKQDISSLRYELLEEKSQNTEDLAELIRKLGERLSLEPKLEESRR
Sequence of UniProt Q8IXJ6 (whole entry, looked up): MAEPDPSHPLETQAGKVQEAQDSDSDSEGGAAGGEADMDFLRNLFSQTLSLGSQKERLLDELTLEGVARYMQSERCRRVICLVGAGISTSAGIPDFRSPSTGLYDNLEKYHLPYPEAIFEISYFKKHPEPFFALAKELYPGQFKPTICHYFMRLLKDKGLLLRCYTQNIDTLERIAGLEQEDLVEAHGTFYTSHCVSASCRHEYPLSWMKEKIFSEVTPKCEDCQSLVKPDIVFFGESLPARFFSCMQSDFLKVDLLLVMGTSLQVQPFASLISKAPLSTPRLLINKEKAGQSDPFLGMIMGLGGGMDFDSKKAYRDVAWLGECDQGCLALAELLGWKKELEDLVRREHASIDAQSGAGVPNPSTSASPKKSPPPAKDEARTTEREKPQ
Sequence of UniProt P21741 (whole entry, looked up): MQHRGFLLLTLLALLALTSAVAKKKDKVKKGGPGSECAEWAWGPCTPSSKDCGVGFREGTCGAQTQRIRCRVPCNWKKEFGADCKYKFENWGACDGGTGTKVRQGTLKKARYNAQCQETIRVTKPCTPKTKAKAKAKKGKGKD

With Cc1cc(C#N)cc(C)c1Oc1nc(NC2CCN(Cc3ccc(S(N)(=O)=O)cc3)CC2)nc2ccsc12 the IC50 was 0.3 ± 0.06 µM (Gag-Pol polyprotein, reverse transcriptase (gag-pol, Human immunodeficiency virus 1, UniProt P03366); reverse transcriptase activity, inhibitor, refers to: biotin-dUTP incorporation).
The IC50 of Cc1ccc(C2=NN=C(NC(=S)Nc3ccc(Cl)cc3)SC2)cc1 is reported as 0.11 ± 0.01 µM (KDR).
O=c1c2c(O)cc(O)cc2oc2oc3cc(O)ccc3c12 gave an IC50 of 10.7 ± 2.01 µM (alpha-glucosidase; inhibitor).
The IC50 of N#Cc1ccc(O)c(-c2nc(NCc3cnccn3)c3ccccc3n2)c1 is reported as 0.0179 µM (EGFR Del19/T790M/C797S; kinase activity, inhibitor).
OC[C@H](OCc1ccccc1Cl)[C@H](O)C[S@@+]1C[C@@H](O)[C@H](O)[C@H]1CO has an IC50 of 0.26 µM (Si; isomaltase activity, inhibitor; rat intestinal disaccharidases).
The IC50 of N#Cc1ccc(N(Cc2ccc(O)c(Br)c2)n2cnnc2)cc1 is reported as 0.001 to 0.01 µM (Aromatase (CYP19A1, Homo sapiens, UniProt P11511); enzyme activity, inhibitor; JEG-3).
The IC50 of Cc1ccc2oc(=O)c(-c3nc4cnccc4[nH]3)cc2c1 is reported as 0.15 ± 0.0341 µM (Bifunctional arginine demethylase and lysyl-hydroxylase JMJD6 (Homo sapiens, UniProt Q6NYC1); demethylase activity, inhibitor).
With NC(=S)N/N=C/c1ccc([N+](=O)[O-])cc1 the IC50 was 0.05 µM (tyrosinase; enzyme activity, inhibitor).
Cc1ccccc1CO[C@@H](CO)[C@H](O)C[S@@+]1C[C@@H](O)[C@H](O)[C@H]1CO has an IC50 of 0.48 µM (Si; isomaltase activity, inhibitor; rat intestinal disaccharidases).
The IC50 of O=C(Nc1ccc(C(F)(F)F)cc1)Nc1ccc(C(F)(F)F)cc1Cl is reported as 0.8 µM (MRGPRX2 (Homo sapiens, UniProt Q96LB1); antagonist).
The IC50 of COc1ccc(C(=O)/C=C(\O)C(F)(F)C(F)(F)F)c(O)c1 is reported as 0.17 ± 0.01 µM (Formate-nitrite transporter (Plasmodium falciparum, UniProt O77389); L-lactate transport; yeast expressing wild type).
N=C(N)N/N=C1/C=C2C/C(=N\NC(=N)N)C=C2C1 gave an IC50 of 48 µM (Mycosin-1 (Mycolicibacterium thermoresistibile, UniProt G7CDQ2); inhibitor).
For CCC1SCC(=O)N1c1c(C#N)c2n(c1C(=O)Nc1ccccc1)CCC2 (centres unmarked), the IC50 was 0.63 µM (CDK2; enzyme activity, inhibitor).
Nc1c2cc(Br)n3c2nc[n+]1[C@@H]1O[C@H](COP(=O)(O)OP(=O)([O-])OC[C@H]2O[C@@H]3[C@H](O)[C@@H]2O)[C@@H](O)[C@H]1O gave an IC50 of 0.73 µM (cADPR receptor, sea urchin; antagonist; sea urchin egg homogenate).
C=CC(=O)N1CCC[C@@H](n2nc(-c3cccc4ccccc34)c3c(N)ncnc32)C1 has an IC50 of 0.0019 ± 0.0008 µM (EGFR (Homo sapiens, UniProt P00533, L858R/T790M)).
The IC50 of S=C(Nc1ccccc1)Nc1ccc(Nc2nc(/C=C/c3ccc(Br)cc3)nc3ccccc23)cc1 is reported as 0.06 µM (KDR).
With NC(=O)CCN(NC(=O)[C@H](Cc1ccccc1)NC(=O)OCc1ccccc1)C(=O)CBr the IC50 was about 0.048 µM (human rhinovirus 3C protease; enzyme activity, inhibitor).
For C#CCCCC1(CCC(=O)N[C@@H](CCCCNC(=S)CCCCCCCCCCCCC)C(=O)N[C@@H](C)C(=O)N[C@@H](C)C(=O)OC)N=N1, the IC50 was over 2000 µM (SIRT3; deacetylase activity, inhibitor, HPLC; together with: H3K9ac substrate).
For C[C@@H](c1cc(OCC(F)F)ccn1)n1cnc2c(N)nc(Cl)nc21, the IC50 was over 10 µM (PDE3A (Homo sapiens, UniProt Q14432); enzyme activity).
For N=C(N)NCCC[C@H](NC(=O)[C@H](CSSC[C@H](NC(=O)[C@H](Cc1ccc(O)cc1)NC(=O)[C@H](Cc1c[nH]c2ccccc12)NC(=O)[C@H](CCCNC(=N)N)NC(=O)[C@@H](N)Cc1c[nH]c2ccccc12)C(=O)N[C@@H](CCCNC(=N)N)C(N)=O)NC(=O)[C@H](Cc1ccc(O)cc1)NC(=O)[C@H](Cc1c[nH]c2ccccc12)NC(=O)[C@H](CCCNC(=N)N)NC(=O)[C@@H](N)Cc1c[nH]c2ccccc12)C(N)=O (single isomer, unassigned), the IC50 was 0.06 µM (RecG helicase; Holliday junction unwinding, inhibitor; dimer equivalents).
Cc1cccc2c(NCc3ccc(C(=O)Nc4ccccc4N)cc3)c3ccccc3nc12 gave an IC50 of 0.248 µM (HDAC1 (Homo sapiens, UniProt Q13547)).
For OC[C@H](OCc1ccccc1C(F)(F)F)[C@H](O)C[S@@+]1C[C@@H](O)[C@H](O)[C@H]1CO, the IC50 was 0.15 µM (Si; sucrase activity, inhibitor; rat intestinal disaccharidases).
COc1cccc2cc(C(=O)c3cn(-c4ccc(Cl)cc4)nn3)c(=O)oc12 has an IC50 of 4.11 µM (alpha-amylase; inhibitor).
Nc1c(-c2ccc(Cl)cc2)nc2nc3ccccc3n2c1-c1ccc(Cl)cc1 has an IC50 of 45 µM (rat intestinal alpha-glucosidase; inhibitor).
OC[C@H](OCc1ccccc1)[C@H](O)C[S@@+]1C[C@@H](O)[C@H](O)[C@H]1CO has an IC50 of 0.32 µM (rat intestinal maltase; maltase activity, inhibitor; rat intestinal disaccharidases).
The IC50 of NC(=O)c1cn(Cc2ccc(F)cc2)cc(O)c1=O is reported as over 50 µM (Tripartite terminase subunit 3, C-terminal nuclease domain (Human betaherpesvirus 5, UniProt P16732); inhibitor).
CCCCCCCCCCCCCC(=S)NCCCC[C@H](NC(=O)c1ccc(C(=O)c2ccc(OC/C=C/CN=[N+]=[N-])cc2)cc1)C(=O)N[C@@H](C)C(=O)N[C@@H](C)C(=O)OC has an IC50 of 303 ± 52.5 µM (SIRT3; deacetylase activity, inhibitor, HPLC; together with: H3K9ac substrate).
The IC50 of COc1cc2ncnc(Nc3ccc(Oc4ccccc4)cc3)c2cc1OC is reported as 0.044 to 0.088 µM (Src kinase; enzyme activity, inhibitor).
With CCCCCCn1cc(O)c(=O)cc1/C=N/OCC the IC50 was 2.04 µM (tyrosinase; monophenolase activity, inhibitor).
For COC(=O)[C@H](C)NC(=O)[C@H](C)NC(=O)[C@H](CCCCNC(C)=S)NC(=O)c1ccc(C(=O)c2ccc(OC/C=C/CN=[N+]=[N-])cc2)cc1, the IC50 was 2.98 ± 0.04 µM (SIRT2 (Homo sapiens, UniProt Q8IXJ6); enzyme activity, inhibitor).
With NS(=O)(=O)c1ccc(N2N=C(C(F)(F)F)CC2c2ccc(F)cc2F)cc1 (centres unmarked) the IC50 was 2.93 µM (COX-2 (sheep placenta); enzyme activity, inhibitor).
Nc1n[nH]c(NCc2c(Cl)cccc2Oc2cccc3ccccc23)n1 gave an IC50 of 0.23 µM (Lysine-specific histone demethylase 1A, with CoREST (KDM1A, Homo sapiens, UniProt O60341); enzyme activity, inhibitor).
For C/C(=N\NC(=O)c1ccc([N+](=O)[O-])cc1)c1ccc(NC(=O)c2cccnc2)cc1, the IC50 was 0.24 µM (KDR; kinase activity, inhibitor).
Cc1c(O)c(=O)ccn1-c1cccc(C(=O)N/N=C/c2cc(Br)ccc2O)c1 has an IC50 of 25.3 µM (tyrosinase; enzyme activity, inhibitor).
For COCCO[C@H]1CC[C@H](Nc2cc(=O)n(C)c3ccc(-c4cncs4)cc23)CC1, the IC50 was 0.007 µM (CD38 (Homo sapiens, UniProt P28907)).
The IC50 of Clc1ccccc1C1Nc2ccc3ccccc3c2C2C=CCC21 (centres unmarked) is reported as 2.4 µM (androgen receptor; transcriptional activity).
With CCOC(=O)N1CCC(C)(c2cc(O)n3nc(C)c(-c4ccc(C(F)(F)F)cc4)c3n2)CC1 the IC50 was ~1 µM and 1 µM (Trpc6 (Mus musculus, UniProt Q61143); ion channel activity, inhibitor).
The IC50 of O=C(NO)c1ccc(Cn2c3c(c4cc(F)ccc42)SC(c2ccccc2)C3)s1 (centres unmarked) is reported as 2.03 ± 0.28 µM (HDAC8 (Homo sapiens, UniProt Q9BY41); inhibitor; together with: Fluor-de-Lys substrate 50 µM).
For COc1ccc(O[C@@H]2O[C@H](C(=O)OCc3ccccc3)[C@@H](O[C@@H]3O[C@H](COS(=O)(=O)O)[C@H](OS(=O)(=O)O)[C@H](O[C@@H]4O[C@H](C(=O)OCc5ccccc5)[C@@H](O[C@@H]5O[C@H](COS(=O)(=O)O)[C@H](OS(=O)(=O)O)[C@H](OC(=O)CCC(C)=O)[C@H]5NC(=O)C(F)(F)F)[C@H](OCc5ccccc5)[C@H]4OC(=O)c4ccccc4)[C@H]3NC(=O)C(F)(F)F)[C@H](OCc3ccccc3)[C@H]2OC(=O)c2ccccc2)cc1, the IC50 was 1.3 µM (Midkine (Homo sapiens, UniProt P21741); binding to tetrasaccharides, inhibitor).
Cc1cc(C)n(-c2ccc(S(=O)(=O)NC(=N)N)cc2)c(=O)c1C#N has an IC50 of 39.1 µM (DNA gyrase; enzyme activity).
For COc1ccc(-c2nnc(SCc3ccc(Cl)nc3)o2)c(O)c1, the IC50 was 2.3 µM (telomerase; enzyme activity, inhibitor).

A few entries again:
For C#CCCCC1(CCC(=O)N[C@@H](CCCCNC(=S)CCCCCCCCCCCCC)C(=O)N[C@@H](C)C(=O)N[C@@H](C)C(=O)OC)N=N1, the IC50 was over 2000 µM (SIRT3; deacetylase activity, inhibitor, HPLC; together with: H3K9ac substrate).
For C[C@@H](c1cc(OCC(F)F)ccn1)n1cnc2c(N)nc(Cl)nc21, the IC50 was over 10 µM (PDE3A (Homo sapiens, UniProt Q14432); enzyme activity).
For N=C(N)NCCC[C@H](NC(=O)[C@H](CSSC[C@H](NC(=O)[C@H](Cc1ccc(O)cc1)NC(=O)[C@H](Cc1c[nH]c2ccccc12)NC(=O)[C@H](CCCNC(=N)N)NC(=O)[C@@H](N)Cc1c[nH]c2ccccc12)C(=O)N[C@@H](CCCNC(=N)N)C(N)=O)NC(=O)[C@H](Cc1ccc(O)cc1)NC(=O)[C@H](Cc1c[nH]c2ccccc12)NC(=O)[C@H](CCCNC(=N)N)NC(=O)[C@@H](N)Cc1c[nH]c2ccccc12)C(N)=O (single isomer, unassigned), the IC50 was 0.06 µM (RecG helicase; Holliday junction unwinding, inhibitor; dimer equivalents).
Cc1cccc2c(NCc3ccc(C(=O)Nc4ccccc4N)cc3)c3ccccc3nc12 gave an IC50 of 0.248 µM (HDAC1 (Homo sapiens, UniProt Q13547)).
